Literature values as cited in several papers.
± gives the spread as reported.
Sequence of UniProt Q9UUB1 (whole entry, looked up): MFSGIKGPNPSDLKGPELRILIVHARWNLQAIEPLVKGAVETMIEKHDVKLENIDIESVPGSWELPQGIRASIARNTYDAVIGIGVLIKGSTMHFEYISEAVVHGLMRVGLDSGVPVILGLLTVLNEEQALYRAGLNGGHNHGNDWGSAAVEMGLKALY

Compound	target or system	test	system	setting	scale	measurement	value
Cc1ccccc1-c1cc(N2CCNCC2)ncc1N(C)C(=O)C(C)(C)c1cc(C(F)(F)F)cc(C(F)(F)F)c1	–	–	healthy volunteers, plasma	oral, dose not given, netupitant-palonosetron, fasted	–	Tmax	13.8 h
CN1C(=O)[C@@H](Cc2ccc(O)cc2)NC(=O)CNC(=O)[C@H](Cc2ccc3ccccc3c2)NC(=O)[C@H](CCCNC(=N)N)NC(=O)[C@H]1CCCNC(=O)c1ccc(CNC(=O)CN2CCN(CC(=O)O)CCN(CC(=O)O)CCN(CC(=O)O)CC2)cc1 [gallium-68 labelled]	–	PET dosimetry	human patients, liver	–	–	absorbed dose coefficient	0.0175 mGy/MBq
CC(=O)O[C@@H]1[C@@H](OC(C)=O)C2=C(C(=O)C(O)=C(C(C)C)C2=O)[C@@]2(C)CCCC(C)(C)[C@H]12	HL-60	cell growth	–	–	–	GI50	10 to 30 µM
O=C1c2ccccc2-c2c1c1ccc([N+](=O)[O-])cc1c(=O)n2C[C@H](O)CO	MCF7	cell growth	–	breast cancer panel	–	GI50	0.016 µM
O=c1[nH]c(SC[C@H](O)[C@H](O)[C@H](O)CO)c([N+](=O)[O-])c(=O)[nH]1	6,7-dimethyl-8-ribityllumazine synthase (rib4, Schizosaccharomyces pombe, UniProt Q9UUB1)	enzyme kinetics	–	pH 7.0	lower = tighter substrate binding	Ks	2.3 ± 0.2 µM
CC(C)C1=C(O)C(=O)C2=C(C1=O)[C@H](O)[C@@H](O)[C@H]1C(C)(C)CCC[C@]21C	NCI-H460	–	–	–	–	GI50	> 30 µM
Cc1ccccc1-c1cc(N2CC[N+](C)([O-])CC2)ncc1N(C)C(=O)C(C)(C)c1cc(C(F)(F)F)cc(C(F)(F)F)c1	–	–	healthy volunteers, plasma	oral, 450 mg, single dose, added: palonosetron 0.75 mg	–	Tmax	4.39 h
O=C(Nc1ccccc1-c1cccc(F)c1)c1nccnc1C(F)(F)F	Botrytis cinerea	–	cucumber	–	–	EC80	10 to 40 mg a.i./L
CN1CCN(c2cc(-c3ccccc3CO)c(N(C)C(=O)C(C)(C)c3cc(C(F)(F)F)cc(C(F)(F)F)c3)cn2)CC1	–	–	healthy volunteers, plasma	oral, dose not given, netupitant-palonosetron, fasted	–	half-life	65.6 h
COCCOCCOCCOCCC(=O)NCc1cc(CNC(=O)CCOCCOCCOCCOC)cc(-c2cc3cc4nc(c(OC)c5[nH]c(cc6nc(cc2[nH]3)CC6(C)C)cc5-c2cc(CNC(=O)CCOCCOCCOCCOC)cc(CNC(=O)CCOCCOCCOCCOC)c2)CC4(C)C)c1	–	–	DMF	room temperature	–	kic^−1	9 ns
O=C(Nc1ccccc1-c1ccc(C(F)(F)F)c(F)c1)c1nccnc1C(F)(F)F	Puccinia triticina	–	wheat	–	–	EC80	0.5 to 2 mg a.i./L
CC(=O)OC1=C(C(C)C)C(=O)C2=C(C1=O)[C@@]1(C)CCCC(C)(C)[C@@H]1[C@H](OC(C)=O)[C@H]2OC(C)=O	MOLT-3	–	–	–	–	GI50	≤ 5 µM
O=C1c2ccccc2-c2c1c1ccc([N+](=O)[O-])cc1c(=O)n2C[C@H](O)[C@@H](O)[C@H](O)[C@H](O)CO	HCT-116	cell growth	colon cancer	–	–	GI50	5.08 µM

Some of these lines once more:
Compound	target or system	test	system	setting	scale	measurement	value
O=C(Nc1ccccc1-c1cccc(F)c1)c1nccnc1C(F)(F)F	Botrytis cinerea	–	cucumber	–	–	EC80	10 to 40 mg a.i./L
